Published values gathered from unrelated publications.
Numbered parts are unrelated; each lists some results of a single study. “And” joins repeats or separate records; there may be more than shown.
Sequence of UniProt P50750 (whole entry, looked up): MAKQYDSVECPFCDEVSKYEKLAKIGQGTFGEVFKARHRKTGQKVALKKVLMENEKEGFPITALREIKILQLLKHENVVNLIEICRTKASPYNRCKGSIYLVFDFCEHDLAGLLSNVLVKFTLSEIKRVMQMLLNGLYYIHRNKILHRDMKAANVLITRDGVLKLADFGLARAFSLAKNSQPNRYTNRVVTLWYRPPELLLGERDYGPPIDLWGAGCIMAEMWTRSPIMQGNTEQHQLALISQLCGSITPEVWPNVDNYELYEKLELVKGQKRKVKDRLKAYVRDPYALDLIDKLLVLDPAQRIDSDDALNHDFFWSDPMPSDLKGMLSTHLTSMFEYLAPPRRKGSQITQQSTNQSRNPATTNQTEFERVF
Sequence of UniProt Q15759 (whole entry, looked up): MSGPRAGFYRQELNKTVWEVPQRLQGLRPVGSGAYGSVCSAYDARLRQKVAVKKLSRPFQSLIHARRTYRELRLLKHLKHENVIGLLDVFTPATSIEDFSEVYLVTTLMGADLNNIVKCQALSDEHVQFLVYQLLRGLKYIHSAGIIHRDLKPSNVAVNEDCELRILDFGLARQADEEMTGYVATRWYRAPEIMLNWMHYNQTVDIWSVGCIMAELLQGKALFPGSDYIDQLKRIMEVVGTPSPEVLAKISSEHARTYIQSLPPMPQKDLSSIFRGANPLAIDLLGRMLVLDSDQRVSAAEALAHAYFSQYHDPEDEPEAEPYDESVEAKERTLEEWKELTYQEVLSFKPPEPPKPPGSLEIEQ
Sequence of UniProt P42681 (whole entry, looked up): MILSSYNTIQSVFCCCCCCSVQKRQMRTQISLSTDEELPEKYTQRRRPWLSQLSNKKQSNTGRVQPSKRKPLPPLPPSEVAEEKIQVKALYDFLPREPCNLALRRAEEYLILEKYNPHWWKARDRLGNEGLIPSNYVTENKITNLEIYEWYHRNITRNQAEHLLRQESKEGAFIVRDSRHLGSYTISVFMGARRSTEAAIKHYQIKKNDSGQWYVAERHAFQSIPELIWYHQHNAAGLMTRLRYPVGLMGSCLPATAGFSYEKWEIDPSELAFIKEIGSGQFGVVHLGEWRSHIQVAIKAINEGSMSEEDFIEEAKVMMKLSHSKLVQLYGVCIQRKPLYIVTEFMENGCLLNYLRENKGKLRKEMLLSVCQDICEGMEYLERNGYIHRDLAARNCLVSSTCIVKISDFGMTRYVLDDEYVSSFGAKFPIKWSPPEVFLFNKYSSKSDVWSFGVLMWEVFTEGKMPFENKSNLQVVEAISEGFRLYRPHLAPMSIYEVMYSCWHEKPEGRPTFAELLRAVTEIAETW
Sequence of UniProt Q9H4B4 (whole entry, looked up): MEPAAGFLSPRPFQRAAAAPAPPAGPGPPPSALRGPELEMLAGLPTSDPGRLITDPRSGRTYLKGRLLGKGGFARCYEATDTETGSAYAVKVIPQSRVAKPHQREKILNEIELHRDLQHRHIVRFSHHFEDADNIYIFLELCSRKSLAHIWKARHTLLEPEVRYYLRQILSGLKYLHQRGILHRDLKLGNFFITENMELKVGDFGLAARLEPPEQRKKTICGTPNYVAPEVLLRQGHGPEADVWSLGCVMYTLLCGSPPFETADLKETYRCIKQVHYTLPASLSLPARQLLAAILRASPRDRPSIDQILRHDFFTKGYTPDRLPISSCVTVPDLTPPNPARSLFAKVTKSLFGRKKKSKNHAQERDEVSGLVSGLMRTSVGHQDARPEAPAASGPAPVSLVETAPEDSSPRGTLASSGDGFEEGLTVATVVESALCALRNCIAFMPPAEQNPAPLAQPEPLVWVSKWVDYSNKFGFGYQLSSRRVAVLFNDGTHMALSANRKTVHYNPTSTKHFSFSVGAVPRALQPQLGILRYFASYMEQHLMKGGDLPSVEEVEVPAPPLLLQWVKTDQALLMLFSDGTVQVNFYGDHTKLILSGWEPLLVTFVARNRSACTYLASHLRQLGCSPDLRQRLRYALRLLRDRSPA
Sequence of UniProt P08581 (whole entry, looked up): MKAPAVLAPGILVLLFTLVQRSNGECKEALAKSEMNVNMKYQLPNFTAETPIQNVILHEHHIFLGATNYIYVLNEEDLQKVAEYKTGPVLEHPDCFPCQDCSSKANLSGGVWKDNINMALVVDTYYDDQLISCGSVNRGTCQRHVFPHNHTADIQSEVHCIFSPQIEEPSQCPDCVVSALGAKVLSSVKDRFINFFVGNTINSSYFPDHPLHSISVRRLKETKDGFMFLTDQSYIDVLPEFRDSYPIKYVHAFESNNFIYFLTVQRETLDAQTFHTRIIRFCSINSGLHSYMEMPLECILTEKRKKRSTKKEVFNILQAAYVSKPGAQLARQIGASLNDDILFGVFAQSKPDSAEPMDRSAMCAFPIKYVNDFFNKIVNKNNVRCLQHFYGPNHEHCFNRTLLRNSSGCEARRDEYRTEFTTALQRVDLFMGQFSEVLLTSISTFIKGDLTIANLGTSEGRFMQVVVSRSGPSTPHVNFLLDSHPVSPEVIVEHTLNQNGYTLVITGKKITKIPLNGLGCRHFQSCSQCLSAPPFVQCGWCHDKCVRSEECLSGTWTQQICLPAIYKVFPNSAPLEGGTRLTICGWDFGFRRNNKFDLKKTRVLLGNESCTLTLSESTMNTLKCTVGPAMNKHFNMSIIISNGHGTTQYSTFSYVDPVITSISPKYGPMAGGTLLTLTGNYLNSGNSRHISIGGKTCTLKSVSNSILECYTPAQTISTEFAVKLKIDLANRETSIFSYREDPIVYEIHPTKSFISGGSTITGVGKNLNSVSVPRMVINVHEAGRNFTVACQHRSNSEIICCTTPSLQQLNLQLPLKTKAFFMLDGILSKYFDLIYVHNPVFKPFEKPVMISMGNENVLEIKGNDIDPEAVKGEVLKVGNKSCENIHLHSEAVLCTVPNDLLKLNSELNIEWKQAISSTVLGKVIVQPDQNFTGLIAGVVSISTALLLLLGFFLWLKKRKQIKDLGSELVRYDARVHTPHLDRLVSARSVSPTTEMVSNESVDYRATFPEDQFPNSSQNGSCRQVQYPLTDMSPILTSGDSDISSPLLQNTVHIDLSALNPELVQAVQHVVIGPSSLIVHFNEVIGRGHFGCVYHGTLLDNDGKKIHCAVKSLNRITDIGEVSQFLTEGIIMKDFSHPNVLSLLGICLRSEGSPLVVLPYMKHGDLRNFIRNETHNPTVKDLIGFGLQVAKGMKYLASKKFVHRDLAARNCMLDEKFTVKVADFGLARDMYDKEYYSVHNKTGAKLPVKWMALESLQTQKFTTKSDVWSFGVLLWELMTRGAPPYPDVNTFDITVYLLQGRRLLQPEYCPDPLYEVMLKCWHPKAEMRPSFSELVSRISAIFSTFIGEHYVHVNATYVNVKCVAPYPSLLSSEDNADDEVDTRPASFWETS
Sequence of UniProt Q96L34 (whole entry, looked up): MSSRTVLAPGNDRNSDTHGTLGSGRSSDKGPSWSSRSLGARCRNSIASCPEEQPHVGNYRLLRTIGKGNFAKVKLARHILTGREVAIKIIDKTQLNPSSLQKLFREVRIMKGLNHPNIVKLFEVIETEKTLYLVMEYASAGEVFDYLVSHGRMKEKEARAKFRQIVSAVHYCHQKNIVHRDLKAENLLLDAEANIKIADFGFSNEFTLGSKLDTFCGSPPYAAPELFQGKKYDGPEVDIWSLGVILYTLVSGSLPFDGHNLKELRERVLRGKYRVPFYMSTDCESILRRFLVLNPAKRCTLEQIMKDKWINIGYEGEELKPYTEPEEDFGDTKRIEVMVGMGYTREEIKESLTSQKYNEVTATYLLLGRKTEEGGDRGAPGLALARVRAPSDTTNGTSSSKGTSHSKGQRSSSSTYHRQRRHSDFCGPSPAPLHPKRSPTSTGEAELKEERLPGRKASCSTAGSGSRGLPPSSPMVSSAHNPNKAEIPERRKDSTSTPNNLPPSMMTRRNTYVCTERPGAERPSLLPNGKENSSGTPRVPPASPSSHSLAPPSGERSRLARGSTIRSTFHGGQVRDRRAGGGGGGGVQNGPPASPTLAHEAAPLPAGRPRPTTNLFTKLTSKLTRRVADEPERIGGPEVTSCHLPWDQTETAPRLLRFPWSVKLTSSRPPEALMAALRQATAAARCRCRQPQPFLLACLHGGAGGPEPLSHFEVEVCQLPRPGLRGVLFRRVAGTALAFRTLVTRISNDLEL
Sequence of UniProt Q13237 (whole entry, looked up): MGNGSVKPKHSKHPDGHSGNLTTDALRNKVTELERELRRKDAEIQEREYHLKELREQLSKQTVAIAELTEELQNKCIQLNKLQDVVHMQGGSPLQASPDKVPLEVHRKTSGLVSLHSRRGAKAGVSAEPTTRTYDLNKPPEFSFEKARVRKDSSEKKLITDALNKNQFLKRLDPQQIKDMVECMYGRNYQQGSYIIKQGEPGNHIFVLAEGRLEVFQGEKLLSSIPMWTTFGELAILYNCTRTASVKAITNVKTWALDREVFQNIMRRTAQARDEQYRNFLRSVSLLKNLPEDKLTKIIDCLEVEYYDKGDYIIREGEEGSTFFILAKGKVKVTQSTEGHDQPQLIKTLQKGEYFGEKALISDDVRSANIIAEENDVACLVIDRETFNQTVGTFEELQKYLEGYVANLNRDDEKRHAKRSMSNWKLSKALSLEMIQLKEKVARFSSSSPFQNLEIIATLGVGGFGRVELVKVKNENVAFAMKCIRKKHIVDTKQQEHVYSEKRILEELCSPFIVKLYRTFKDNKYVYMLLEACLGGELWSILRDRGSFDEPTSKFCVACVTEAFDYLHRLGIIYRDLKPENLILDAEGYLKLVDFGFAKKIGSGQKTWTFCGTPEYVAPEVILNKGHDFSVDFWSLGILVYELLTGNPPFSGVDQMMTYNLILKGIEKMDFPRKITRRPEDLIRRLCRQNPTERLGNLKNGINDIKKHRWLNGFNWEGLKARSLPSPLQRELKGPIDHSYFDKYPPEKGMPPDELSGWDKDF

Set 1
Cell line: HEK-293T
Observed: pseudovirus infection
Technique: FDA-approved drug library counter-screen
Organism: VSV pseudotyped with VSV-G
Tested at: 10 µM
Time: 16 h
Reference: vehicle-treated
SMILES | GFP-positive cells [%]
CCN(CC)C(=S)SSC(=S)N(CC)CC | 122
COc1c(C)c2c(c(O)c1C/C=C(\C)CCC(=O)OCCN1CCOCC1)C(=O)OC2 | 0.85
COc1cc(C(C)=O)ccc1OCCCN1CCC(c2noc3cc(F)ccc23)CC1 | 87.2
CC(=O)N[C@H]1[C@H]([C@H](O)[C@H](O)CO)OC(C(=O)O)=C[C@@H]1N=C(N)N | 127
Nc1ncnc2c1ncn2[C@@H]1O[C@H](CO)[C@@H](O)[C@@H]1O | 109
N[C@@H](CC(=O)N1CCn2c(nnc2C(F)(F)F)C1)Cc1cc(F)c(F)cc1F | 85
CCc1c2c(nc3ccc(OC(=O)N4CCC(N5CCCCC5)CC4)cc13)-c1cc3c(c(=O)n1C2)COC(=O)[C@]3(O)CC | 102
Cc1ncc(CO)c(CO)c1O | 95.6
N=C(N)NC(=O)c1nc(Cl)c(N)nc1N | 107
CC1=NS(=O)(=O)c2cc(Cl)ccc2N1 | 113
O=C(Nc1c(Cl)cncc1Cl)c1ccc(OC(F)F)c(OCC2CC2)c1 | 118
CCCCCCCCCCCCCCCC[N+](C)(C)CCN(Cc1ccc(OC)cc1)c1ncccn1 | 106
C[C@@H](O[C@H]1OCCN(Cc2n[nH]c(=O)[nH]2)[C@H]1c1ccc(F)cc1)c1cc(C(F)(F)F)cc(C(F)(F)F)c1 | 148
CC[C@@H](C(N)=O)N1CCCC1=O | 100
CC1(C)NC(=O)N(c2ccc([N+](=O)[O-])c(C(F)(F)F)c2)C1=O | 99.6
Nc1nnc(-c2cccc(Cl)c2Cl)c(N)n1 | 108

Set 2
Structure (SMILES): COc1ccc2c(c1)/C(=C/c1cnc[nH]1)C(=O)N2
Observed: enzyme activity
Action: inhibitor
Tested at: 0.5 µM
Reference: control
target | remaining activity [%]
Cyclin-dependent kinase 9, with cyclin K (CDK9, Homo sapiens, UniProt P50750) | 59.4
TXK (Homo sapiens, UniProt P42681) | 93.5
MAP2K1 (Homo sapiens, UniProt Q02750) | 94.8
Myosin-IIIb (MYO3B, Homo sapiens, UniProt Q8WXR4) | 88
CLK4 (Homo sapiens, UniProt Q9HAZ1) | 72.6
MAPK11 (Homo sapiens, UniProt Q15759) | 103
CAMK4 (Homo sapiens, UniProt Q16566) | 97.4
PNCK (Homo sapiens, UniProt Q6P2M8) | 86.3
MAPK1 (Homo sapiens, UniProt P28482) | 93.1
AKT2 (Homo sapiens, UniProt P31751) | 106
PRKG2 (Homo sapiens, UniProt Q13237) | 99.7
MET (Homo sapiens, UniProt P08581) | 103
GRK4 (Homo sapiens, UniProt P32298) | 93.6
ROCK1 (Homo sapiens, UniProt Q13464) | 96
PLK3 (Homo sapiens, UniProt Q9H4B4) | 93
RPS6KA4 (Homo sapiens, UniProt O75676) | 76.9
MINK1 (Homo sapiens, UniProt Q8N4C8) | 57.9
DDR2 (Homo sapiens, UniProt Q16832) | 95.5
NEK3 (Homo sapiens, UniProt P51956) | 87.8
CDC42BPB (Homo sapiens, UniProt Q9Y5S2) | 104
CLK3 (Homo sapiens, UniProt P49761) | 103
PAK3 (Homo sapiens, UniProt O75914) | 99.2
MARK4 (Homo sapiens, UniProt Q96L34) | 37.4
DCLK2 (Homo sapiens, UniProt Q8N568) | 96
MAPK14 (Homo sapiens, UniProt Q16539) | 97.7

Set 3
Organism: Sarcocystis neurona
Observed: parasite growth
Tested at: 10 µM
Time: 96 h
Setting: second screen
Reference: untreated
SMILES | log2 fold change
O=c1c(-c2ccccc2)c1-c1ccccc1 | -2.77
CN1CCN(CC/C=C2/c3ccccc3Sc3ccc(S(=O)(=O)N(C)C)cc32)CC1 | -0.87
Oc1cc(Cl)ccc1Oc1ccc(Cl)cc1Cl | -0.33
C[C@H]1CCC[C@H](O)CCCCCc2cc(O)cc(O)c2C(=O)O1 | 0.51
c1ccc(Cn2ccnc2)cc1 | 0.25

Set 4
SMILES: CCOc1ccc(Nc2c3c(nc4ccccc24)CCC3)cc1
Organism: Leishmania donovani
observed | strain | sample | tested at | setting | inhibition
parasite growth | DD8 amphotericin B-resistant | promastigotes | 33.33 µM |  | 100% and 99% and 98%
 | DD8 resistant line | promastigotes | 6.66 µM | resistance confirmation | 34%
parasite growth | DD8 amphotericin B-resistant | intracellular amastigotes | 0.008 µM |  | 7% and 1% and -7% and 2%
 | DD8 resistant line | promastigotes | 16.66 µM | resistance confirmation | 63%
parasite growth |  |  | 66.66 µM | promastigote | 99%
parasite growth | DD8 amphotericin B-resistant | promastigotes | 16.66 µM |  | 93% and 94% and 88% and 91%
 | DD8 resistant line | promastigotes | 33.33 µM | resistance confirmation | 84%
parasite growth | DD8 amphotericin B-resistant | intracellular amastigotes | 0.8 µM |  | 56% and 58% and 61% and 55% and 57% and 48%
